Assay results pooled from the literature.
Numbered parts are unrelated; each lists some results of a single study. Substitutions count along the parent as printed.

Set 1
Target: Histone acetyltransferase KAT6A, winged helix 2, GST fusion (KAT6A, Homo sapiens, UniProt Q92794, residues 85-181)
Technique: protein binding microarray
Molecule type: double-stranded DNA, one strand shown
Matrix: in vitro
Concentration: not given
Setting: 8-mer, flanks averaged, mean of 2 arrays, mostly near background
Baseline: not given
Direction: higher = stronger binding
Quantity: E-score
Target sequence (chain): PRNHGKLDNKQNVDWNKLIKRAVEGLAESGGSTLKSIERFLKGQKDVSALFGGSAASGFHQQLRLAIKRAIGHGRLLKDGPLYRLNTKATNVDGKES
ACAGCGCA: 0.215
CGACCGAC: -0.0376
AATTACGC: -0.152
CATTGCGG: -0.0639
ATGTCCTA: -0.0466
CCAGGTCC: 0.0685
ATGGCAGC: 0.0652
ACGATACT: -0.0333

Set 2
Target: CCNE1, cyclin fold, Cln2 fusion (human)
Technique: yeast growth competition, sequencing
Matrix: yeast
Setting: weak parent motif
Baseline: not given
Direction: higher = stronger binding
Quantity: normalised enrichment score
Starting sequence: CDC6 docking peptide (human); TLKGRRLVFDNQL
L2R: 0.983
R5L: 0.957
V8D: 0.377
L13F: 0.201

Set 3
Target: Interferon regulatory factor 7, full length, phosphomimetic (IRF7, Homo sapiens, UniProt Q92985, residues 1-503, S471D/S472D/S475D/S476D/S477D/S483D/S484D/S487D)
Technique: protein-binding microarray
Molecule type: double-stranded DNA, one strand shown
Matrix: in vitro
Concentration: 2200 nM top
Setting: 60-bp whole probe
With: salmon DNA 0.4 mg/ml
Baseline: random background probes
Direction: higher = stronger binding
Quantity: fitted relative affinity
All sequences stand within: GCCTAGCAC … GTCTTGATTCGCTTGACGCTGCTG
Construct (chain): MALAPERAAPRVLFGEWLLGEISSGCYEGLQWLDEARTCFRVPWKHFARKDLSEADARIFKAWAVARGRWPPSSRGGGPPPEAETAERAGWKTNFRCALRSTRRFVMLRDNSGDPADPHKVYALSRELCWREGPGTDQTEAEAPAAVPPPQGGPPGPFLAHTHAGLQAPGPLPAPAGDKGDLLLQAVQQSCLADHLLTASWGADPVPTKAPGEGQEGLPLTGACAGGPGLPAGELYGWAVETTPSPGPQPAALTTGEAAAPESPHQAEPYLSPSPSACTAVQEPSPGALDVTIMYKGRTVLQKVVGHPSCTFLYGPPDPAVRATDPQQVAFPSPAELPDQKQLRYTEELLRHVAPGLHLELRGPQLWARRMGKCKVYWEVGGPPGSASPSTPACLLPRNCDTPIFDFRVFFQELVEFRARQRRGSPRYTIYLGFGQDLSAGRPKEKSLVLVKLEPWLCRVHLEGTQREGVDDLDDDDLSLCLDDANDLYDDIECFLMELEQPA
CTTGCCCACTTCTGTGACAGGTGCTAG: 0.762 z-score
TCACGGGCTTCTTTTTCTACTGTGCTA: 0.258 z-score
ATTTTTTTGTAATCGAAATCTGTGCTA: 0.709 z-score
GTCGGACTGGGGTATCGGGACGTGCTA: -0.755 z-score
TTAGATTGCGGGTTTCGATTAGTGCTA: 3.05 z-score
TTAGGTCTCGGTCTCCGTTAGTGCTAG: 0.701 z-score
GACGATCTCACTTTCGAGACGTGCTAG: 5.23 z-score
TCATATGTATATATGTGACTGTGCTAG: 0.911 z-score

Further values, each from its own experiment
PhoQ, residues 284 288 289 292 302 303 AEGLLW  fold induction (PhoP, residues 12 14 15 18 19 NHFIF (Escherichia coli, UniProt P23836); Sort-seq, item: YFP reporter; E. coli; PhoQ-PhoP variant library, with: 10 µM Mg2+; baseline: high Mg2+ state, higher = stronger signaling): 20.7
